Published values collected from several papers.
Every numbered part comes from another study and shows a few of its results, in no order. “And” joins repeats or separate records; there may be more than shown.

Sample 1 — method: RNAcompete; molecule type: RNA; sample: in vitro; tested at: 20 nM; setting: 7-mer, probes averaged, single round; baseline: mean of 7-mers; direction: higher = stronger binding
Target: PABPC1L2, full length, GST fusion (mouse, UniProt A0ABA7IW68)
Residues (chain): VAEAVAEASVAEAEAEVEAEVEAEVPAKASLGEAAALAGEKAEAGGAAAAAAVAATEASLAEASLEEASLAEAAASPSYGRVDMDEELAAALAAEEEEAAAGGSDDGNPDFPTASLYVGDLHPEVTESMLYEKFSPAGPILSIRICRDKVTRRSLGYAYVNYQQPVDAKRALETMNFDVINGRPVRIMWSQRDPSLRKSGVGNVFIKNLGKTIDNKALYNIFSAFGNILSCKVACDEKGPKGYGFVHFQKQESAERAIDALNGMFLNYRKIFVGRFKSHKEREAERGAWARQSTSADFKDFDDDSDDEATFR
For `ACAUACA`, the 7-mer Z-score was 0.195.
`CUUUCUC` gave a 7-mer Z-score of -0.434.
With `CGAAUAG` the 7-mer Z-score was -0.171.
`GCAUUUA` gave a 7-mer Z-score of 0.35.
`AGGUUUA` gave a 7-mer Z-score of -0.251.
`CCACGCC` gave a 7-mer Z-score of -0.331.
`CACAACC` has a 7-mer Z-score of -0.161.
`ACUGGGG` has a 7-mer Z-score of 0.274.

Sample 2 — method: protein-binding microarray; molecule type: double-stranded DNA, one strand shown; sample: in vitro; tested at: 250 nM; setting: 60-bp whole probe; added: salmon DNA 0.4 mg/ml; baseline: random background probes; direction: higher = stronger binding; shared flanks, not repeated: GCCTAGCAC … GTCTTGATTCGCTTGACGCTGCTG
Target: Interferon regulatory factor 7, full length, phosphomimetic (IRF7, Homo sapiens, UniProt Q92985, residues 1-503, S101K/S471D/S472D/S475D/S476D/S477D/S483D/S484D/S487D)
Construct (chain): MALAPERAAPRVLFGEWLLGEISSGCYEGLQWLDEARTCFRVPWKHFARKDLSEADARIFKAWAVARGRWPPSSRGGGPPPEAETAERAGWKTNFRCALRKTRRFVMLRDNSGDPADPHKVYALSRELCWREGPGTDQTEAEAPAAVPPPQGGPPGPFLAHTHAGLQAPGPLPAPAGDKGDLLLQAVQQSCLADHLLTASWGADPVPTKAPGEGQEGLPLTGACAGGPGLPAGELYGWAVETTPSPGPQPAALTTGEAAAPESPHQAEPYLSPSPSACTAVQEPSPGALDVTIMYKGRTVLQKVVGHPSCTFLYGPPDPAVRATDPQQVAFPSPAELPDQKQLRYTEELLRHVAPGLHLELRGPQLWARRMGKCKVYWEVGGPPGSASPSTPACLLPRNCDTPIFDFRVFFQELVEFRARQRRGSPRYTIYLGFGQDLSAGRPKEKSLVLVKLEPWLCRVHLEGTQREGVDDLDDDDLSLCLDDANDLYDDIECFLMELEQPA
With `TCAGGTTCCCATTCCAGACTGTGCTAG` the log fluorescence was 2.1 z-score.
With `GGAGTTTTCAGTCCTGGGATGTGCTAG` the log fluorescence was -0.131 z-score.
`GACGGACTGCTACTGCTGAGGTGCTAG` has a log fluorescence of -0.958 z-score.
The log fluorescence of `TTAGGATTCGGACTGGGTTAGTGCTAG` is reported as 0.43 z-score.
For `TTAGGTATCGGTCTCGGTCAGTGCTAG`, the log fluorescence was 1.13 z-score.
With `TTAGATATCAGGTTTCGATTAGTGCTA` the log fluorescence was 7.9 z-score.
For `TGAGATTTCAGTATCGATTAGTGCTAG`, the log fluorescence was 0.814 z-score.
The log fluorescence of `TTAGATTTGAGACTGGATTAGTGCTAG` is reported as 0.0323 z-score.

Sample 3 — mode: inhibitor; tested at: 20 µM
Target: Replicase polyprotein 1ab, nsp13 helicase (rep, Severe acute respiratory syndrome coronavirus 2, UniProt P0DTD1)
With `O=C1c2ccccc2C(=O)C1c1ccc(Br)cc1` the inhibition was 6.88%.
For `C=CCn1c(=O)c2cnc(Nc3ccc(N4CCN(C)CC4)cc3)nc2n1-c1cccc(C(C)(C)O)n1`, the inhibition was 7.23%.
The inhibition of `CCc1oc2ccccc2c1C(=O)c1cc(Br)c(O)c(Br)c1` is reported as 0.1%.
`C=C(CC)C(=O)c1ccc(OCC(=O)O)c(Cl)c1Cl` gave an inhibition of 54.7%.
`COc1ccc2c(C(=S)N(C)CC(=O)O)cccc2c1C(F)(F)F` gave an inhibition of -6.06%.
For `CNCCN(C)Cc1c[nH]nc1-c1ccc(O[C@H]2C[C@H](OCCC3CCOCC3)C2)cc1`, the inhibition was 5.7%.
`CCCn1c(=O)[nH]c2nc(-c3ccc(S(=O)(=O)N4CCN(c5ccc(Cl)cc5)CC4)cc3)[nH]c2c1=O` has an inhibition of 4.79%.
The inhibition of `CC(=O)OCC(=O)[C@@]1(OC(C)=O)[C@@H](C)C[C@H]2[C@@H]3C[C@H](F)C4=CC(=O)C=C[C@]4(C)[C@@]3(F)[C@@H](O)C[C@@]21C` is reported as 3.77%.
`COc1ccc(-n2c(SCCCN3C(=O)c4cccc5cccc(c45)C3=O)nnc2-c2ccncc2)cc1` has an inhibition of 1.49%.
With `COC(=O)C1=C(C)NC(C)=C([N+](=O)[O-])[C@H]1c1ccccc1C(F)(F)F` the inhibition was 0.86%.
`O=C(NC1CCNCC1)[C@@H]1CC[C@@H]2CN1C(=O)N2OS(=O)(=O)O` gave an inhibition of -4.57%.
The inhibition of `CCn1c(=O)c2c(nc(/C=C/c3ccc(OC)c(OC)c3)n2C)n(CC)c1=O` is reported as 5.19%.
The inhibition of `O=c1[nH]c2cc(Cl)ccc2c(O)c1-c1cccc(Oc2ccccc2)c1` is reported as 3.24%.
`COP(=O)(OC)OC(c1ccc(Cl)cc1)P(=O)(OC)OC` (centres unmarked) has an inhibition of 4.98%.
For `Cc1ccc2c(Cl)cc(Cl)c(O)c2n1`, the inhibition was 2.22%.
`CC(=O)N(O)CCCCCNC(=O)CCC(=O)N(O)CCCCCNC(=O)CCC(=O)N(O)CCCCCN` gave an inhibition of 0.75%.
For `C[C@@H](Oc1cc(-n2cnc3ccc(CN4CCN(C)CC4)cc32)sc1C(N)=O)c1ccccc1C(F)(F)F`, the inhibition was 72.4%.
For `COc1cc(C(=O)NS(=O)(=O)c2ccccc2C)ccc1Cc1cn(C)c2ccc(NC(=O)OC3CCCC3)cc12`, the inhibition was 39.5%.
`CCc1cc(/C(C)=N/OCc2ccc(C3CCCCC3)c(C(F)(F)F)c2)ccc1CN1CC(C(=O)O)C1` gave an inhibition of 3.67%.
With `O=c1c2ccccc2oc2ccccc12` the inhibition was 3%.
With `COc1cc(O)c(C(=O)c2ccccc2)cc1S(=O)(=O)O` the inhibition was -2.95%.
`COc1cc(CCc2cc(NC(=O)c3ccc(N4C[C@@H](C)N[C@@H](C)C4)cc3)n[nH]2)cc(OC)c1` has an inhibition of -3.14%.
`NCCC[C@H](N)CC(=O)N[C@H]1CNC(=O)[C@H]([C@H]2C[C@H](O)NC(N)=N2)NC(=O)/C(=C/NC(N)=O)NC(=O)[C@H](CO)NC(=O)[C@H](CO)NC1=O` gave an inhibition of 0.9%.
The inhibition of `NS(=O)(=O)c1ccc2c(c1)C1C=CCC1C(c1ccc(Br)cc1)N2` (centres unmarked) is reported as 15.9%.
The inhibition of `CN1CCN(CCCCN2C(=O)CN(/N=C/c3ccc(-c4ccc(Cl)cc4)o3)C2=O)CC1` is reported as 34.3%.

Sample 4 — method: RNA Bind-n-Seq; molecule type: RNA; sample: in vitro; tested at: not given; baseline: input RNA pool; direction: higher = stronger binding
Target: RING finger protein unkempt homolog, zinc fingers 1-6, GST-SBP tag (UNK, Homo sapiens, UniProt Q9C0B0, residues 30-357)
UniProt Q9C0B0, sequence (30-357, looked up): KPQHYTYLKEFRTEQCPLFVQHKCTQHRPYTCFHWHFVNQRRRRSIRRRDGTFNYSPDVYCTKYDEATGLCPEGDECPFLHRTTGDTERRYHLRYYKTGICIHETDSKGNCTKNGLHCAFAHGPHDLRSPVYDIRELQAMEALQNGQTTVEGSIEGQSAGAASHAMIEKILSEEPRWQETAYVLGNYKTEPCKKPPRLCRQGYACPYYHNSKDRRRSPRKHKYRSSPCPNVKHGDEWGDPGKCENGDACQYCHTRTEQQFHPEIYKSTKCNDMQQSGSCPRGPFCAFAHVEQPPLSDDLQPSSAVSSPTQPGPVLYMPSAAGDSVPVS
Setting: RNA with constant flanks, human-mouse chimeric sites, ends assumed
The bound/input enrichment of `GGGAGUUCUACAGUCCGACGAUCACAGUUAUAUUGUUGAGUUUCAUUUUCUUGUAUGUUUGUAGUGUCUGCUUGCCUGUGACUUCUGGUAAAAUAAAAUAUUAAAAUUACAAUAUUUUAGCAUGGUAUUUAACAUUUUCUAAACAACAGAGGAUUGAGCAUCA` is reported as 0.796 ratio.
The bound/input enrichment of `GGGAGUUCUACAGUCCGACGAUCCACAGAGCAGCACCUACCCCCUCCUCCUUUCCACACCUGCAAACUCUUUUACUUGGGCUGAAUAUUUAGUGUAAUUACAUCUCAGCUUUUGAGGGCUCUGUGGCAAAAUACCCGGAUAAACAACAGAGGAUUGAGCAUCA` is reported as 1.26 ratio.
`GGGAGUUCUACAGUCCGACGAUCCCAAUUGUGGAGCAGUACUUGAAGACAAAGAAAAAUUCUAAUAAUUUAAUCAUCAAGUACAUUAGCUGCCGCCUGCUGACAUUUGUGAUUAUACUGUUGGCAUGUAUCUACCUGGGCUAUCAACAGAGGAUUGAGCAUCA` gave a bound/input enrichment of 0.401 ratio.
`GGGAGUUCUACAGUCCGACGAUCGAGCGUCUUGCCCGCACUGGGAUCAUCGUGACCACUAGUGAGGCUGUUCUGCUUCAGCUGGUGGCUGACAAAGACCACCCGAAGUUCAAGGAAAUUCAGAACCUAAUUAAGGCGAGUGCCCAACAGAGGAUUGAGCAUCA` has a bound/input enrichment of 0.108 ratio.
For `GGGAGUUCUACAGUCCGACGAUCAGUGUGCAGGAAUUCAUGACCUUUACAAGUCAACUGAUUGUGGAGCGCUCGGGGAAAGGCACUAGAGCUUCUGUCAAAGAACAAGAGUAUCUUUGCCAUGUCUACGUCCGGAGCGACAGUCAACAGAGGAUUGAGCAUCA`, the bound/input enrichment was 0.112 ratio.
With `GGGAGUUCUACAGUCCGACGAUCAAAGUGAUGACUAUGUUUGUCCAACGACAGGUAUUUUCGGAGAGCAAGGAUGAGAUUGCGUUAGUCCUCUAUGGCACAGAUGGCACUGACAAUCCCCUUGCUGGCAAGGACCAGUAUCAGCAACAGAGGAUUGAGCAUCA` the bound/input enrichment was 0.162 ratio.
`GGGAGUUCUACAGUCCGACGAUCAUCAAAUACUUUGGGGACAUCAUUAGUGUGGGACAGAGACUGUUGCAAGGAGCUCGGAUCUUAGGGAUUCCAGUUAUUGUAACAGAACAAUACCCCAAAGGACUUGGGAGCACGGUUCAACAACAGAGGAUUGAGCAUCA` has a bound/input enrichment of 0.208 ratio.
`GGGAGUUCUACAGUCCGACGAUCUGGCGCCUGCGCUCCCCACUCGUGUUUUUAAGUGUAUUUUUAUAAGAUACAUGUAUUUGUAAUAGAUCUUUUGUUACAUAAUGCUGAAAACAUCUCUGAGAUUAUGAAAAAUGUUUCAAUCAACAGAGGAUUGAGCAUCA` has a bound/input enrichment of 0.105 ratio.

Sample 5 — cell line: HEK-293T/ACE2; tested at: 10 µM; time: 16 h; baseline: vehicle
`CC1(C)O[C@@H]2[C@@H](CO[C@@]3(COS(N)(=O)=O)OC(C)(C)O[C@@H]23)O1` gave a viability of 101%.
`NCCCCCC(=O)O` gave a viability of 101%.
The viability of `O=C(O)CCCc1ccccc1` is reported as 102%.
`CC(=O)Oc1ccccc1C(=O)Nc1ncc([N+](=O)[O-])s1` has a viability of 82%.

Sample 6 — read-out: enzyme activity; mode: inhibitor; tested at: 20 µM; setting: hit confirmation
Target: Replicase polyprotein 1ab, main protease (rep, Severe acute respiratory syndrome coronavirus 2, UniProt P0DTD1)
The inhibition of `Oc1cccc(-c2c3nc(c(-c4cccc(O)c4)c4ccc([nH]4)c(-c4cccc(O)c4)c4nc(c(-c5cccc(O)c5)c5ccc2[nH]5)CC4)C=C3)c1` is reported as 77.8%.
The inhibition of `Cc1cc(OI)c(C(C)C)cc1-c1cc(C(C)C)c(OI)cc1C` is reported as 2.8%.
With `CCCC[C@@H](C=O)NC(=O)[C@H](CC(C)C)NC(=O)OCc1ccccc1` the inhibition was 78.2% and 57.5%.

For quick reference, copied from above (sample 3):
The inhibition of `CC(=O)OCC(=O)[C@@]1(OC(C)=O)[C@@H](C)C[C@H]2[C@@H]3C[C@H](F)C4=CC(=O)C=C[C@]4(C)[C@@]3(F)[C@@H](O)C[C@@]21C` is reported as 3.77%.
`COc1ccc(-n2c(SCCCN3C(=O)c4cccc5cccc(c45)C3=O)nnc2-c2ccncc2)cc1` has an inhibition of 1.49%.
With `COC(=O)C1=C(C)NC(C)=C([N+](=O)[O-])[C@H]1c1ccccc1C(F)(F)F` the inhibition was 0.86%.
